Published values of several laboratories.
Numbered parts are unrelated; each lists some results of a single study. Positions count from the first letter of the parent shown.

Set 1
Target: ABI1, truncated, D143A, DHFR fusion (Arabidopsis thaliana)
Technique: DHFR PCA, deep sequencing
Sample: yeast
Notes: methotrexate growth selection, single substitutions
Added: (+)-ABA 0.032 µM
Reference: wild-type fitted maximum
Reading: higher = stronger binding
Starting sequence: PYL1, truncated, DHFR fusion (Arabidopsis thaliana); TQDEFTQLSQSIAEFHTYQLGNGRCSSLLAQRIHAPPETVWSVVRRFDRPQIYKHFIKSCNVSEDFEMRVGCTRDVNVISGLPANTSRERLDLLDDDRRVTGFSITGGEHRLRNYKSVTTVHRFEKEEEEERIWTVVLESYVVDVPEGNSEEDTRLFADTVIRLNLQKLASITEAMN
Under “relative binding score”, `V100A` is recorded as 25.5%.
Under “relative binding score”, `V62M` is recorded as -0.158%.
`G71C` — result for “relative binding score”: -1.24%.
`S150P` — result for “relative binding score”: 5.26%.
`S171R` — result for “relative binding score”: 39.9%.
For `T73H`, “relative binding score” read 19.5%.
`I79E` — result for “relative binding score”: 12.7%.
`S11N` — result for “relative binding score”: 4.6%.
`T154Q`: “relative binding score” -0.987%.
Under “relative binding score”, `Y141Q` is recorded as -2.21%.
`F15M`: “relative binding score” 1.61%.
`E174W`: “relative binding score” -4.4%.
Under “relative binding score”, `E152N` is recorded as -0.352%.
`K126Y`: “relative binding score” 28.5%.
`T160H`: “relative binding score” 4.81%.
For `K116E`, “relative binding score” read -2.89%.
`S87F`: “relative binding score” 32.7%.
For `S80A`, “relative binding score” read 10.8%.
Under “relative binding score”, `D97E` is recorded as 46.8%.
`T1S`: “relative binding score” 23.8%.

Set 2
Target: Sal-like protein 4, full length isoform B (SALL4, Homo sapiens, UniProt Q9UJQ4-2, residues 1-616)
Technique: universal PBM
Form: double-stranded DNA, one strand shown
Sample: in vitro
Tested at: not given
Notes: 8-mer, flanks averaged, mean of replicates
Reading: higher = stronger binding
Target sequence (chain): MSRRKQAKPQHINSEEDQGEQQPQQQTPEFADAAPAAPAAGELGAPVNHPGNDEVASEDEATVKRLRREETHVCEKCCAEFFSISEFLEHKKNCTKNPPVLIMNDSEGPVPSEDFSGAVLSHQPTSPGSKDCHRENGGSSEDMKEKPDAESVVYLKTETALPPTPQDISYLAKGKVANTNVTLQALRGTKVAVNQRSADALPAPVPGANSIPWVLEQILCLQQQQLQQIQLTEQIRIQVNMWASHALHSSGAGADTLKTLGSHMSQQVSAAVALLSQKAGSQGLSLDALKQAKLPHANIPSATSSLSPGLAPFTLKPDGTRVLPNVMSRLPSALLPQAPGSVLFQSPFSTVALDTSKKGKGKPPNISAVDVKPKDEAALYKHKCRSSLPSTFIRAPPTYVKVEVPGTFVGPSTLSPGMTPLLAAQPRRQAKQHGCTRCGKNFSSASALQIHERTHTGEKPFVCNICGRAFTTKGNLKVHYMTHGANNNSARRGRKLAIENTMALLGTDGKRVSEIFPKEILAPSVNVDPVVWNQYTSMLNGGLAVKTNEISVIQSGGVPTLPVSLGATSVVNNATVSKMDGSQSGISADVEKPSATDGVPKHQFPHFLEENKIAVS
`AAATTGAG` gave an E-score of 0.183.
The E-score of `CTGCCGTC` is reported as -0.319.
The E-score of `ACCATTAA` is reported as 0.261.
`ATACGGAC` has an E-score of 0.0141.
For `AACTGACC`, the E-score was -0.0582.
The E-score of `CTCCATCC` is reported as -0.132.
For `ATGTGCGG`, the E-score was -0.113.
With `CGGTGGAG` the E-score was -0.272.
The E-score of `GGTCCGTA` is reported as -0.195.
With `ATACACTC` the E-score was 0.208.
`AAACGGTC` gave an E-score of -0.153.
`GTAGCAAA` has an E-score of 0.104.
With `ACTAATGC` the E-score was 0.0677.
The E-score of `ATCGTTCG` is reported as -0.00558.
With `TACTTCCA` the E-score was 0.104.
`ATAACATC` gave an E-score of 0.225.
For `AGAAAGCG`, the E-score was -0.134.
With `CCTTTGCC` the E-score was -0.0251.
With `CTCCACGA` the E-score was -0.148.
`ACAGCGCG` has an E-score of -0.267.
The E-score of `AATGTGCT` is reported as 0.167.
For `CCAACTTA`, the E-score was 0.0328.
`CATATCAC` has an E-score of 0.261.
With `AACCAGAT` the E-score was -0.00283.
`AATCCGAT` gave an E-score of 0.157.

Set 3
Target: RNA binding protein fox-1 homolog 2, RRM domain, GST-SBP tag (RBFOX2, Homo sapiens, UniProt O43251-10, residues 100-194)
Technique: RNA Bind-n-Seq
Form: RNA
Sample: in vitro
Tested at: 365 nM
Notes: natural RNA segment, single round, ends assumed
Reference: no-protein control
Reading: higher = stronger binding
`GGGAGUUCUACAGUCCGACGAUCAAUGCCAUCUCAACUGAAAAUACAAAAUUAGCUGGGUGUGGUGGUGCAUGCCUGUAAUCCCAGGUACUCGGGAGGCCAAGGCAGGAGAAUCGCUUGAACCCAGGAGGUGAUGGAAUUCUCGGGUGCCAA`: “RBNS enrichment (R)” 1.47.
Under “RBNS enrichment (R)”, `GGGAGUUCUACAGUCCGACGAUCAGAGGAAGAUGCUAUGAAAGAAAAAAAAAAUUCCUAAAACUGUGGAAUGGAUCACGUAGACAUGUAACCCAGCAGCAGUUUGCUUCUGUUGUCCACUGAUUAAUCAGCCUUGGAAUUCUCGGGUGCCAA` is recorded as 0.876.
For `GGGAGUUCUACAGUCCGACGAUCUCCCAGGCUCUUCUCAUCAGAGACUUCAGUUUGGGUGGGGAGUCUGCAGGUCAGGGAAGGUUCUGGUGCUUUUCGUUUGAUCCAAAAGGAGCUGAGAGCCAGAAAUGUGGUGGAAUUCUCGGGUGCCAA`, “RBNS enrichment (R)” read 0.599.
For `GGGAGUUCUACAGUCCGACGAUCAAAAAGAUCAGGCUUUCUGACUUCCAUCCCCAAAACACAUUUACCAGCAUACUCCAAACUGUUUCUGAUGUGUUCCAUGAGAAAAGGAUUGUUUGCUCAAAAAGCUUGGAUGGAAUUCUCGGGUGCCAA`, “RBNS enrichment (R)” read 0.387.
`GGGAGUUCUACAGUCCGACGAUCCGGGAAAGCGUCCUGUCGGCUGGCCAUGCUGUUGCUUGCGUCUCGAAUCUUCGGUUCUCGAGGAAGUGUUGACAGUGUGAUGCUAAUGUCUGCUUUUCUUGGCGUUGGGUUGGAAUUCUCGGGUGCCAA`: “RBNS enrichment (R)” 1.19.
Under “RBNS enrichment (R)”, `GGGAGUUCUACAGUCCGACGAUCUGGGACAGGACACACCAGAGCUAAGGCCGCAUUGCUUUUGUCAAAGUCUCCUCCUCUGACUGGUUUCAGGAAAUCAAGAAGUUUGAAUCACAUACUCAUUUUACUUGAAAUGGAAUUCUCGGGUGCCAA` is recorded as 0.44.
For `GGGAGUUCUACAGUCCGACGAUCAGUGUGGAAAGUCUACAGUGCAGAAAGGCUUGAACCUGCCAGCUGAUUUGAAAUACUUUCCCCUGCGCAGGGCCGUAUGCAUCCUGCCAAGCUGCGUUAUAUUCUGUACUUGGAAUUCUCGGGUGCCAA`, “RBNS enrichment (R)” read 0.555.
Under “RBNS enrichment (R)”, `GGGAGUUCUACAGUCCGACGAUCAUUUUAGUAGAGAUGAAGUGUCACUAUGUUACCAAGGCUGGUCUCAAACUCCUAAACUCAGAUGAUCCUCCUGCCUCGGCCUCCCAAAGUGCUGGAAUUAGCCUGGCCAAUGGAAUUCUCGGGUGCCAA` is recorded as 0.567.

Set 4
Target: CCNE2, cyclin fold, Cln2 fusion (human)
Technique: yeast growth competition, sequencing
Sample: yeast
Notes: weak parent motif
Reference: not given
Reading: higher = stronger binding
Starting sequence: SLBP docking peptide (human); ARYKRKLLINDFG
Under “normalised enrichment score”, `A1S` is recorded as 1.19.
For `A1L`, “normalised enrichment score” read 0.26.
Under “normalised enrichment score”, `Y3K` is recorded as 0.00364.
`G13E` — result for “normalised enrichment score”: 0.699.
For `Y3E`, “normalised enrichment score” read 0.594.
Under “normalised enrichment score”, `A1R` is recorded as 0.765.
`F12C`: “normalised enrichment score” 0.701.
`F12T` — result for “normalised enrichment score”: -0.356.
For `K6S`, “normalised enrichment score” read -0.0879.
`F12H` — result for “normalised enrichment score”: 0.197.
`R2E`: “normalised enrichment score” 0.433.
`N10R` — result for “normalised enrichment score”: -0.084.
Under “normalised enrichment score”, `N10Q` is recorded as 0.832.
`G13R` — result for “normalised enrichment score”: 0.54.
For `A1G`, “normalised enrichment score” read 1.01.
Under “normalised enrichment score”, `K6H` is recorded as -0.173.
Under “normalised enrichment score”, `N10C` is recorded as 0.853.
`R5Y` — result for “normalised enrichment score”: 0.442.
For `I9Q`, “normalised enrichment score” read -0.183.
`K4R`: “normalised enrichment score” 0.378.
For `K6M`, “normalised enrichment score” read 0.293.
`L7T` — result for “normalised enrichment score”: -0.217.
Under “normalised enrichment score”, `F12N` is recorded as 1.23.
`F12L`: “normalised enrichment score” 0.716.
For `Y3C`, “normalised enrichment score” read 0.409.

Other studies, line by line
For `PhoQ, residues 284 288 289 292 302 303 NLMGRA`, the fold induction was 11.2 (PhoP, residues 12 14 15 18 19 NMSFL (Escherichia coli, UniProt P23836); Sort-seq, refers to: YFP reporter; E. coli; PhoQ-PhoP variant library, added: 10 µM Mg2+; reference: high Mg2+ state, higher = stronger signaling).

Excerpt of the above (set 2):
With `TACTTCCA` the E-score was 0.104.
`ATAACATC` gave an E-score of 0.225.
The E-score of `ATCGTTCG` is reported as -0.00558.
`AAACGGTC` gave an E-score of -0.153.
With `ACTAATGC` the E-score was 0.0677.
The E-score of `ACCATTAA` is reported as 0.261.
For `AACTGACC`, the E-score was -0.0582.
For `AGAAAGCG`, the E-score was -0.134.
`GTAGCAAA` has an E-score of 0.104.
